Measured values collected from several papers.
Lines come from different studies, so protocols differ. ± marks the error that the study gave.

Compound | organism | test | system | setting | IC50
CCCCCCCOP(=O)(O)Oc1c2c(c(OP(=O)(O)OCCCCCCC)c3c1C1CC3c3cc4c(cc31)C1CC4c3ccccc31)C1CC2c2cc3c(cc21)C1CC3c2ccccc21 | human respiratory syncytial virus | viral infection, GFP reporter, flow cytometry | A549 | virus pretreated 30 min | 7100 nM
CC[C@H](C)[C@H](NC(=O)[C@H](CC(C)C)NC(=O)[C@H](Cc1c[nH]cn1)NC(=O)[C@H](Cc1c[nH]cn1)NC(=O)[C@@H](NC(=O)[C@H](Cc1ccccc1)NC(=O)[C@H](CC(N)=O)NC(=O)[C@H](Cc1c[nH]c2ccccc12)NC(=O)[C@@H](NC(=O)[C@H](Cc1c[nH]cn1)NC(=O)[C@H](Cc1c[nH]cn1)NC(=O)[C@H](Cc1c[nH]c2ccccc12)NC(=O)[C@@H](N)CC(C)C)[C@@H](C)CC)C(C)C)C(N)=O | Herpes simplex virus 1 | viral entry, plaque reduction | Vero, F | 37 °C | 4.37 µg/mL
CC(=O)N[C@H](C(=O)N[C@@H](CCCCNC(=O)CCC(=O)OC[C@@H]1O[C@H](n2ccc(N)nc2=O)CS1)C(=O)N[C@H](C(=O)N[C@@H](CCCCNC(=O)CCC(=O)OC[C@@H]1O[C@H](n2ccc(N)nc2=O)CS1)C(=O)N[C@H](C(=O)N[C@@H](CCCCNC(=O)CCC(=O)OC[C@@H]1O[C@H](n2ccc(N)nc2=O)CS1)C(=O)N[C@@H](CCC(=O)O)C(=O)N[C@@H](CCC(=O)O)C(=O)N[C@@H](CCC(=O)O)C(N)=O)C(C)C)C(C)C)C(C)C | hepatitis B virus | HBV DNA release, qPCR | HepAD38, culture supernatant |  | 80 nM
CC(=O)CCC1C(=O)NC(C(C)C)C(=O)NC(Cc2cc(O)cc(F)c2)C(=O)N2CCCC(N2)C(=O)OC(C(C)=CC=CC(=O)N2CCCCO2)CC=CC=CC(O)C(C)C1O (centres unmarked) | hepatitis B virus | viral replication, item: HBsAg | HBV stable cell line |  | 520 nM
CCC(=O)Nc1cc(Nc2cc(NC3CC3)n3ncc(C#N)c3n2)ccc1N(C)CCNC | murine hepatitis virus | viral replication, nanoluciferase reporter | DBT | 10 h | 63.1 nM
CC[C@H](C)[C@H](NC(=O)[C@H](Cc1ccccc1)NC(=O)[C@H](CC(=O)O)NC(=O)[C@H](CCCCN)NC(=O)[C@H](C)NC(=O)[C@H](CCCCN)NC(=O)[C@H](CC(N)=O)NC(=O)[C@H](CC(C)C)NC(=O)[C@H](Cc1c[nH]c2ccccc12)NC(=O)[C@H](CCC(=O)O)NC(=O)[C@H](CCCCN)NC(=O)[C@@H](NC(=O)CNC(=O)[C@H](C)N)[C@@H](C)O)C(=O)N[C@@H](CCCCN)C(=O)N[C@@H](CCC(=O)O)C(=O)N[C@@H](CCCCN)C(=O)NCC(=O)N[C@@H](CC(C)C)C(=O)NCC(=O)N[C@@H](CCSC)C(=O)N[C@@H](CC(C)C)C(=O)N[C@@H](CCCNC(=N)N)C(=O)N[C@@H](C)C(=O)N[C@@H](C)C(=O)N[C@@H](C)C(=O)N[C@@H](CC(N)=O)C(=O)N[C@@H](C)C(=O)N[C@@H](C)C(=O)N[C@@H](CC(C)C)C(=O)N[C@@H](CC(N)=O)C(=O)O | Haemonchus contortus | larval development | Kirby isolate | 6 days, 26 °C | 23500 ± 8300 nM
O=C(C1CCN(c2nnnn2-c2ccccc2)CC1)N1CCCc2ccccc21 | Plasmodium falciparum |  | Dd2, Pfcarl mutant |  | 718 nM
CC(=O)Nc1cc(Nc2cc(NC3CC3)n3ncc(C#N)c3n2)ccc1C | murine hepatitis virus | viral replication, nanoluciferase reporter | DBT | 10 h | 7.94 nM

Repeated from above:
Compound | organism | test | system | setting | IC50
CC(=O)CCC1C(=O)NC(C(C)C)C(=O)NC(Cc2cc(O)cc(F)c2)C(=O)N2CCCC(N2)C(=O)OC(C(C)=CC=CC(=O)N2CCCCO2)CC=CC=CC(O)C(C)C1O (centres unmarked) | hepatitis B virus | viral replication, item: HBsAg | HBV stable cell line |  | 520 nM
